Published values of several laboratories.
Numbered parts are unrelated; each lists some results of a single study. Positions count from the first letter of the parent shown.

Set 1
Target: Fragile X messenger ribonucleoprotein 1, C-terminal low-complexity region (Fmr1, Mus musculus, UniProt P35922)
Technique: RNA Bind-n-Seq
Form: RNA
Matrix: in vitro
Tested at: 200 nM
Setting: whole 134-nt RNA, ends assumed
Together with: 150 mM LiCl
Reference: input library
Reading: higher = stronger binding
All molecules: 7-deaza-guanosine replaces G
For `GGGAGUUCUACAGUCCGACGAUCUGGGAGGUGGAUUUUGUUUACUUUUUUAGCUCAUUUCCAGGGGUGGGAAUUUUUUUUUAAUAUGUGUCAUGAAUAAAGUUGUUUUUGAAAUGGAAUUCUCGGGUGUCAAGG`, the log2 enrichment was 0.138.
`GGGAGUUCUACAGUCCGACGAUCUCCUGUGCUACACAUCGUAUGUACCGAAUCGGGGAAAAAAGGGGAAAAAAGGAAAAAAGGAAAGUAUUAUGUUACGCCGUUCGGAUCUGCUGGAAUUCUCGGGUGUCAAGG` has a log2 enrichment of -0.291.
`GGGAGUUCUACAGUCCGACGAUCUGGGAGGUGGAUUUUGUUUAUUUUUUUAGCUCAUUUCCAGGGGUGGGAAUUUUUUUAUAAUAUGUGUCAUGAAUAAAGUUGUUUUUGAAAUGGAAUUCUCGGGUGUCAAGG` has a log2 enrichment of 0.0424.
`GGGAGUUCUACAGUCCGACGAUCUCCUCAAGUCCUGUGCUACACAUCGUAUGUACCGAAUCGGCGGGGCGGCGGGAAAGUAUUAUGUUACGCCGUUCGGAUCUGCACUUCCAGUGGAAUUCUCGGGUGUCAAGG` gave a log2 enrichment of 1.13.
`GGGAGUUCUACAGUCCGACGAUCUCCUGUGCUACACAUCGUAUGUACCGAAUCGGGGUUUUUUUGGGGAAAGGGGAAAGGGGAAAGUAUUAUGUUACGCCGUUCGGAUCUGCAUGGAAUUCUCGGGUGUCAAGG` gave a log2 enrichment of -0.317.

Set 2
Target: CCND1, cyclin fold, Cln2 fusion (human)
Technique: yeast growth competition, sequencing
Matrix: yeast
Setting: weak parent motif
Reference: not given
Reading: higher = stronger binding
Starting sequence: GMNC docking peptide (human); KNAKRNLSSEFAN; partner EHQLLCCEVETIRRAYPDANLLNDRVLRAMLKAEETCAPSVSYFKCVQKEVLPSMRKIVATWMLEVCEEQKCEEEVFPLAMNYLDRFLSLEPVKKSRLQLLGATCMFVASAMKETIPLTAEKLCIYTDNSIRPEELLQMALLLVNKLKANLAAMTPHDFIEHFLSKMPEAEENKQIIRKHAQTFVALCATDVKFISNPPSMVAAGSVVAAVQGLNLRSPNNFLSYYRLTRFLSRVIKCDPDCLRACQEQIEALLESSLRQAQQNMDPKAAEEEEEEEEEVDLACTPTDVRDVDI
For `A12N`, “normalised enrichment score” read 0.775.
`R5C` — result for “normalised enrichment score”: 0.125.
For `L7A`, “normalised enrichment score” read 0.412.
For `N6A`, “normalised enrichment score” read 0.132.

Set 3
Target: Histone acetyltransferase KAT6A, both winged helices, GST fusion (KAT6A, Homo sapiens, UniProt Q92794, residues 1-181)
Technique: protein binding microarray
Form: double-stranded DNA, one strand shown
Matrix: in vitro
Tested at: not given
Setting: 8-mer, flanks averaged, mean of 2 arrays, mostly near background
Reference: not given
Reading: higher = stronger binding
Target sequence (chain): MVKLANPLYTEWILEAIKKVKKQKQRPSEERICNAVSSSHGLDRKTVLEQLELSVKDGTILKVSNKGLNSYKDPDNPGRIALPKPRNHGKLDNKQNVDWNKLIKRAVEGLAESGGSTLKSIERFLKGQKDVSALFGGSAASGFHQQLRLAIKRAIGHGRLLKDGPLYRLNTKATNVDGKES
The E-score of `AAAGTCAC` is reported as -0.0721.
The E-score of `CGCCCGCA` is reported as 0.23.
`ATCAACAT` gave an E-score of -0.138.
`AGCTGGGC` gave an E-score of -0.0727.
With `GTACAATA` the E-score was 0.0589.
`ACGGGCGG` has an E-score of 0.258.
With `ATGGAGAA` the E-score was -0.0513.
`CCATTGTA` has an E-score of -0.104.
For `ATTCCTGA`, the E-score was -0.104.

Single results of other studies
`PhoQ, residues 284 288 289 292 302 303 SMMNNA` has a fold induction of 28.1 (PhoP, residues 12 14 15 18 19 YHFSH (Escherichia coli, UniProt P23836); Sort-seq, item: YFP reporter; E. coli; PhoQ-PhoP variant library, together with: 10 µM Mg2+; reference: high Mg2+ state, higher = stronger signaling).

A few entries again (set 2):
For `N6A`, “normalised enrichment score” read 0.132.
